Measured values gathered from unrelated publications.
Compare with care: the assays were run in different laboratories. “And” joins repeats or separate records; there may be more than shown.
Mitogen-activated protein kinase 14: Mitogen-activated protein kinase 14 (Rattus norvegicus, UniProt P70618)
Sequence of UniProt P70618 (whole entry, looked up): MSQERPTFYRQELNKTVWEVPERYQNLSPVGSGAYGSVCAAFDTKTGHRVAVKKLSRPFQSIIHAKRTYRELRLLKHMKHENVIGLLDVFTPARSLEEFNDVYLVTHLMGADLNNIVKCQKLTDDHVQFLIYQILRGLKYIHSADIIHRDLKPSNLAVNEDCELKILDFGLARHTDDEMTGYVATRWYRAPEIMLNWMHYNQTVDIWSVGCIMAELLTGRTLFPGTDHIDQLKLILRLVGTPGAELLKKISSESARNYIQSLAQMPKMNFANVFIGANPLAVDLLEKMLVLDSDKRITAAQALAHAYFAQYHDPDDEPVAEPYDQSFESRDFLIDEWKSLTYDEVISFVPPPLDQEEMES
CA2: Carbonic anhydrase 2 (CA2, Homo sapiens, UniProt P00918)
CTSL: Procathepsin L (CTSL, Homo sapiens, UniProt P07711)
Sequence of UniProt P07711 (whole entry, looked up): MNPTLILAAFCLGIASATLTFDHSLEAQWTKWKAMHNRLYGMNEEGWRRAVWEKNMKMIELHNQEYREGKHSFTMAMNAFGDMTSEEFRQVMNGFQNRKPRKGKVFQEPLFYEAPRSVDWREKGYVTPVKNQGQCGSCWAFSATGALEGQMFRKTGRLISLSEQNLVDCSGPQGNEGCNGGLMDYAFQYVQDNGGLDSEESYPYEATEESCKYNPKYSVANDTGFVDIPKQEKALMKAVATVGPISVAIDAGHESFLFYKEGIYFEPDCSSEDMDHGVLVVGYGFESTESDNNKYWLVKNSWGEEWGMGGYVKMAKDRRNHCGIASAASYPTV
Sequence of UniProt Q9H2K2 (whole entry, looked up): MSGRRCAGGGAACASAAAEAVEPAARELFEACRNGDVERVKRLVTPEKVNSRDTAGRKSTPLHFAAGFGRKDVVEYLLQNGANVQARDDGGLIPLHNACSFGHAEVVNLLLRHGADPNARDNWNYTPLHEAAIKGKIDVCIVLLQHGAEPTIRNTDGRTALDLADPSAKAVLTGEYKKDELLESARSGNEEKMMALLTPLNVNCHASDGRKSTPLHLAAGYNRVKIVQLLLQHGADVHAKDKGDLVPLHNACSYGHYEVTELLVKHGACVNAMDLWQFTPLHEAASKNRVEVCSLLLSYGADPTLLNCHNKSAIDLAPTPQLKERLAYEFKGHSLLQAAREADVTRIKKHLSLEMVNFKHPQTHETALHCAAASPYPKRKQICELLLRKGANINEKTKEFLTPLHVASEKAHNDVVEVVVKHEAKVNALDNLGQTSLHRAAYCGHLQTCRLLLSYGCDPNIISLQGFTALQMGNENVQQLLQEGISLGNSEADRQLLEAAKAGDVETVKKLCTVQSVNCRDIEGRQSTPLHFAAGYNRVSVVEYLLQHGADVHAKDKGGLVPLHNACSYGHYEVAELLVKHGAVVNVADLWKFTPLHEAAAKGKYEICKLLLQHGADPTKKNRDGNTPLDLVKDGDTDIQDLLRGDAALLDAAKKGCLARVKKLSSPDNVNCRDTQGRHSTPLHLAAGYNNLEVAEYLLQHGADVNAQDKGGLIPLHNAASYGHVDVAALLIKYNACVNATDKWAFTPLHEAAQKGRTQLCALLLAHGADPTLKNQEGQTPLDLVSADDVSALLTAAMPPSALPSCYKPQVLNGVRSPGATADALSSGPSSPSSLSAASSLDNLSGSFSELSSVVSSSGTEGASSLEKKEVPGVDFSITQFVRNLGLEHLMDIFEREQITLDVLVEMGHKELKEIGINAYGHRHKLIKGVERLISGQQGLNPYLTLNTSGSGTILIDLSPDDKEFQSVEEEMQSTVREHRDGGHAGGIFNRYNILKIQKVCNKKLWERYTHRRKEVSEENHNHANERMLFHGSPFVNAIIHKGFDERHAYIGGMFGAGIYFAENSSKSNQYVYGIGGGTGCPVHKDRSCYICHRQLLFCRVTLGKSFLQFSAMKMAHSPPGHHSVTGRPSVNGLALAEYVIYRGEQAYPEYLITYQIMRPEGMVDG
Sequence of UniProt P13631 (whole entry, looked up): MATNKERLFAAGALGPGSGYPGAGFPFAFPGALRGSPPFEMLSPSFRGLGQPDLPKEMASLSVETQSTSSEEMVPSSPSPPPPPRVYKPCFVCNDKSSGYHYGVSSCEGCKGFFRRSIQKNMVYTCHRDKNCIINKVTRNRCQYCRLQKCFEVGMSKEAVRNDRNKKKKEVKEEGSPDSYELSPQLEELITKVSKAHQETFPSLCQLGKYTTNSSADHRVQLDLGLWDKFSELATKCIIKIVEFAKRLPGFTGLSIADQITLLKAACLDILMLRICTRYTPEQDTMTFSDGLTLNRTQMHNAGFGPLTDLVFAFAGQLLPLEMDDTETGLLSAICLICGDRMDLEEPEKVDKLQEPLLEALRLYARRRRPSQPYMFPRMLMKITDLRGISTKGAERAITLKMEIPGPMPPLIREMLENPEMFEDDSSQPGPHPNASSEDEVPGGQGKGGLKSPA
Sequence of UniProt P11541 (whole entry, looked up): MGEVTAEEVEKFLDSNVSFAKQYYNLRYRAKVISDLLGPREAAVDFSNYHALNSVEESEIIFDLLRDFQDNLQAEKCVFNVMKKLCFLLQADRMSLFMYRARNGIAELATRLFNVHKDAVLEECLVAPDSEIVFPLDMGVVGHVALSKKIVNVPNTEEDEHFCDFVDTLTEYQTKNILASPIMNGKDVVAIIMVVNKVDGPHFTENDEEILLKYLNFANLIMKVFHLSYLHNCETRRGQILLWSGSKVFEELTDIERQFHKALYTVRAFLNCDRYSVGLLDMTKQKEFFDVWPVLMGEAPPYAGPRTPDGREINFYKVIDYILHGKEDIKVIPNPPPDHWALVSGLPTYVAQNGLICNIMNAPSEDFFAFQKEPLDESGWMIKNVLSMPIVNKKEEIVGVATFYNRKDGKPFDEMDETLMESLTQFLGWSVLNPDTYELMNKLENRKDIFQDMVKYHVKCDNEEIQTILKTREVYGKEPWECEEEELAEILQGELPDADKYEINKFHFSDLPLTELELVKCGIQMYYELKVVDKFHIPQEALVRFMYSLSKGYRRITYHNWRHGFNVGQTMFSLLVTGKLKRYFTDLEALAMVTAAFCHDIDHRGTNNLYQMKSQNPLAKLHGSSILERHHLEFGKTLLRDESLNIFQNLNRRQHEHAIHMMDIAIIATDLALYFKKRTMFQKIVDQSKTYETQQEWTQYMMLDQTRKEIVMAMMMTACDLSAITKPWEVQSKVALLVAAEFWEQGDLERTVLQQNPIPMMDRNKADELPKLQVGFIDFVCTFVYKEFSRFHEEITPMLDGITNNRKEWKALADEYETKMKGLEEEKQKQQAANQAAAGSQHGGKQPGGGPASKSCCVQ
Sequence of UniProt P03956 (whole entry, looked up): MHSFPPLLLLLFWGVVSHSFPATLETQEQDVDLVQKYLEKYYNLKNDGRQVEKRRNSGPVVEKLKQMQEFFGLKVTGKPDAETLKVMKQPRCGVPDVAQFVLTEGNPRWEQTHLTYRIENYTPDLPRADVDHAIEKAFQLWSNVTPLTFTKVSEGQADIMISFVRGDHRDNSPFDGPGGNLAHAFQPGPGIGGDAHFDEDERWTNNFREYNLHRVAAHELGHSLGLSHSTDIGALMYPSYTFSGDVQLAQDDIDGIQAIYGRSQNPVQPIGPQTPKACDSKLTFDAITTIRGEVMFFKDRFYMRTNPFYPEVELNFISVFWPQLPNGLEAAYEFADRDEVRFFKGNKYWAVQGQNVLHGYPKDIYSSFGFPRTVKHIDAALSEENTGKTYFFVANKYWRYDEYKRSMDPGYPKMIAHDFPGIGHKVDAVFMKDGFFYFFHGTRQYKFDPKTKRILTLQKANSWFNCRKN
Sequence of UniProt P81908 (whole entry, looked up): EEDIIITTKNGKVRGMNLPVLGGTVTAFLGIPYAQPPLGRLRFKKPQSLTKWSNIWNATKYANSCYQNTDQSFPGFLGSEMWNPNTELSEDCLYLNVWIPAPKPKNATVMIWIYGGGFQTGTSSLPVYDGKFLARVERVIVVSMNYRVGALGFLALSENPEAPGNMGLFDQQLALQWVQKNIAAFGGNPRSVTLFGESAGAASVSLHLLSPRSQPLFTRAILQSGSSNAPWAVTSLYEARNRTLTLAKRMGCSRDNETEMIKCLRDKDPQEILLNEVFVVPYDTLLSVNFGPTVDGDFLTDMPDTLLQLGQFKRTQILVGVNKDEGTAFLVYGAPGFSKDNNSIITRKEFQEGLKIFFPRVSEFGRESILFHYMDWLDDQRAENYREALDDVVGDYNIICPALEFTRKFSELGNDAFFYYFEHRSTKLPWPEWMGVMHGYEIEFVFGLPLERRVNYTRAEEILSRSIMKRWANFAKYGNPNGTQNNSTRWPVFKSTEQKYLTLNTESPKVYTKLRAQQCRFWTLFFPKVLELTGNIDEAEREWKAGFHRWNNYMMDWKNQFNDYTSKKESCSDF
Sequence of UniProt P49683 (whole entry, looked up): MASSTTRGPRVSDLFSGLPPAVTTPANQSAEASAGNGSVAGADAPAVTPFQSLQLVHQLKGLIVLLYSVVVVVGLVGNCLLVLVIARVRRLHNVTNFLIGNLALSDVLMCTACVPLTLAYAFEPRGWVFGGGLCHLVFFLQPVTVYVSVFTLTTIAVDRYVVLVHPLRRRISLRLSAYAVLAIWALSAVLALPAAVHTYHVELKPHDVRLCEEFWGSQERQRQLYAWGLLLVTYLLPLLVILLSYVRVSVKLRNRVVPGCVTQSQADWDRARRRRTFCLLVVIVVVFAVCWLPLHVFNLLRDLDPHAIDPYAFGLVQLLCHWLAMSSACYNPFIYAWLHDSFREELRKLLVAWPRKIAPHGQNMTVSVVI
Sequence of UniProt Q07440 (whole entry, unmodified, looked up): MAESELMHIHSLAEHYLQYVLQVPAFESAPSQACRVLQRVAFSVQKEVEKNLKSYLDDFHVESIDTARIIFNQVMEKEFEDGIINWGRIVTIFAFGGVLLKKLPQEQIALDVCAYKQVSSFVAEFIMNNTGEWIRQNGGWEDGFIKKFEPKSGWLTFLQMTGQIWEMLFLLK
Sequence of UniProt P25084 (whole entry, looked up): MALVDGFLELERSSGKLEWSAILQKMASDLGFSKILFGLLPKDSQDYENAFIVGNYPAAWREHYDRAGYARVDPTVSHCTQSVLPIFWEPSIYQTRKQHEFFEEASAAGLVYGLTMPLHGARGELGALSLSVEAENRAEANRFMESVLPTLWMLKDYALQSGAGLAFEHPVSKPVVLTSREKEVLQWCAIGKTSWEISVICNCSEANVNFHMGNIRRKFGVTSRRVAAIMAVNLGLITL

| SMILES | target | test | system | setting | IC50 |
| --- | --- | --- | --- | --- | --- |
| CC[C@H](C)[C@H](NC(=O)[C@H](C)NC(=O)[C@@H](N)Cc1ccc(O)cc1)C(=O)N[C@@H](CCCNC(=N)N)C(=O)N[C@@H](C)C(=O)N[C@@H](CCCNC(=N)N)C(=O)N[C@@H](CCCNC(=N)N)C(=O)NCC(=O)N[C@@H](CC(C)C)C(=O)N1CCC[C@H]1C(=O)N[C@@H](CCCNC(=N)N)C(=O)N[C@@H](CC(C)C)C(=O)N[C@@H](C)C(=O)N[C@H](C(=O)N[C@@H](CO)C(=O)N[C@@H](CC(=O)O)C(=O)O)C(C)C | Mitogen-activated protein kinase 14 | enzyme activity, inhibitor, fluorescence | – | pH 7.4 | 82 µM |
| O=S(=O)(N/N=C/c1ccc(OS(=O)(=O)c2cc(Cl)ccc2Cl)cc1)c1ccc(Cl)cc1 | CA2 | enzyme activity, inhibitor, absorbance | – | – | 0.0425 µM |
| C[C@H](N)C(=O)N[C@@H](CC(N)=O)C(=O)N[C@@H](CS)C(=O)N1CCC[C@H]1C(=O)N[C@@H](CC(N)=O)C(=O)N[C@@H](Cc1ccc(O)cc1)C(=O)N[C@@H](CCCCN)C(=O)N[C@@H](CS)C(=O)N[C@@H](CCCNC(=N)N)C(N)=O | Pyruvate kinase PKM (PKM, Homo sapiens, UniProt P14618) | enzyme activity, inhibitor, fluorometric | – | 2 h, 37 °C, enzyme 500 nM | > 1000 µM |
| CC[C@H](C)[C@H](NC(=O)[C@H](Cc1ccc(O)cc1)NC(=O)[C@H](CC(C)C)NC(=O)[C@H](CCCNC(=N)N)NC(=O)[C@H](CCCCN)NC(=O)[C@@H](NC(=O)[C@H](CCCCN)NC(=O)[C@H](CCCCN)NC(=O)[C@H](CCCCN)NC(=O)[C@@H](NC(=O)[C@H](CCC(N)=O)NC(=O)[C@H](Cc1ccccc1)NC(=O)[C@H](C)NC(=O)[C@@H](N)Cc1ccc(O)cc1)[C@@H](C)CC)[C@@H](C)O)C(=O)N[C@@H](CC(N)=O)C(=O)N[C@@H](CCCCN)C(=O)O | Mitogen-activated protein kinase 14 | enzyme activity, inhibitor, fluorescence | – | pH 7.4 | 34.3 µM |
| CC1(C)CC=C(c2ccccc2)c2cc(/C=C/c3ccc(C(=O)O)cc3)ccc21 | RARG (Homo sapiens, UniProt P13631) | – | – | – | 0.0127 µM |
| CC(C)CN(CCCC[C@H](NC(=O)[C@H](CCCN1CCOCC1)NC(=O)[C@@H](NC(=O)[C@H](Cc1ccccc1)NC(=O)c1ccc(C(C)(C)C)cc1)C(C)C)C(=O)N[C@@H](CO)C(N)=O)C1CC2CCC1C2 (stereo partly drawn) | Chromobox protein homolog 7 (Homo sapiens, UniProt O95931) | ligand displacement, TR-FRET | – | – | 1.7 µM |
| CN(C)CCCN1C(=O)CSC1c1ccc(F)cc1 (stereo not drawn) | uncharacterized protein (Apis mellifera, UniProt A0A7M6W5G5) | enzyme activity, inhibitor, Ellman | – | together with: 1 mM acetylthiocholine | 16 µM |
| N=C(N)SCc1ccc(B(O)O)cc1 | Furin (FURIN, Homo sapiens, UniProt P09958) | enzyme activity, inhibitor | – | together with: pERTKR-AMC 5 µM | > 10 µM |
| CCOC(=O)c1ccccc1-c1c2ccc(=O)cc-2oc2cc(OCCCn3nnnc3C(NCc3ccccc3)c3ccc(Cl)cc3)ccc12 (stereo not drawn) | ALOX15 (Homo sapiens, UniProt P16050) | enzyme activity, inhibitor, absorbance | – | – | 52.1 µM |
| CC[C@H](C)[C@H](N)C(=O)N[C@@H](CCCNC(=N)N)C(=O)N[C@@H](CCC(N)=O)C(=O)N[C@@H](CCC(=O)O)C(=O)N[C@@H](CCC(=O)O)C(=O)N[C@H](C(=O)N[C@@H](CCC(N)=O)C(=O)N[C@@H](CCC(=O)O)C(=O)N[C@@H](CC(C)C)C(=O)O)C(C)C | HLA class I histocompatibility antigen, B alpha chain, allele B*18:01 (Homo sapiens, UniProt P01889) | peptide-MHC binding, radioligand competition binding | – | – | > 70 µM |
| CC[C@H](C)[C@H](NC(=O)[C@H](Cc1ccccc1)NC(=O)[C@@H](NC(=O)[C@H](CCCNC(=N)N)NC(=O)[C@H](CC(C)C)NC(=O)[C@H](CCCCN)NC(=O)[C@H](CCCNC(=N)N)NC(=O)[C@H](CCCCN)NC(=O)[C@H](CCC(N)=O)NC(=O)[C@H](CCCCN)NC(=O)[C@@H](NC(=O)[C@@H]1CCCN1C(=O)[C@H](C)NC(=O)[C@@H](N)Cc1ccc(O)cc1)[C@@H](C)CC)[C@@H](C)CC)C(=O)N[C@@H](CO)C(=O)N[C@@H](CC(N)=O)C(=O)O | Mitogen-activated protein kinase 14 | enzyme activity, inhibitor, fluorescence | – | pH 7.4 | 2.43 µM |
| CCCCCCCCCCCCCCCCCC(=O)NC[C@H]1CC[C@H](C(=O)N[C@@H](CCC(=O)NCCCOCCOCCOCCCNC(=O)COCC(=O)N[C@@H](Cc2ccc(O)cc2)C(=O)NC(C)(Cc2ccccc2)C(=O)N[C@@H](CC(C)C)C(=O)N[C@@H](CCCC)C(=O)N[C@@H](CCCNC(=N)N)C(=O)N2CCC[C@H]2C(=O)N[C@@H](CCCNC(=N)NC)C(=O)N[C@@H](CC(N)=O)C(N)=O)C(=O)O)CC1 (stereo partly drawn) | PRLHR (Homo sapiens, UniProt P49683) | inositol phosphate, antagonist | – | – | 1.6 µM |
| O=S(=O)(N/N=C/c1ccc(OS(=O)(=O)c2ccccc2)cc1)c1ccc(Cl)cc1 | CA2 | enzyme activity, inhibitor, absorbance | – | – | 0.362 µM |
| O=C(CCc1ccc(Br)cc1)N[C@H]1CCOC1=O | lasR (Pseudomonas aeruginosa, UniProt P25084) | reporter gene, antagonist | PAO-JP2 | together with: OdDHL 10 nM | 2.2 µM |
| CC[C@H](C)[C@H](NC(=O)[C@@H](NC(=O)[C@H](CC(C)C)NC(=O)[C@H](C)NC(=O)[C@@H]1CCCN1C(=O)[C@H](CC(C)C)NC(=O)[C@@H](NC(=O)[C@@H]1CCCN1C(=O)[C@H](CCCCN)NC(=O)[C@H](CCCNC(=N)N)NC(=O)[C@H](CCCNC(=N)N)NC(=O)[C@H](C)NC(=O)[C@H](C)NC(=O)[C@@H](N)Cc1ccc(O)cc1)C(C)C)[C@@H](C)O)C(=O)N[C@@H](CC(N)=O)C(=O)N1CCC[C@H]1C(=O)O | Mitogen-activated protein kinase 14 | enzyme activity, inhibitor, fluorescence | – | pH 7.4 | 14.9 µM |
| CC(C)N1CCCCC1C(=O)NC(Cc1ccc(-c2ccccc2)cc1)B(O)O (stereo not drawn) | 20S proteasome, beta1 subunit (Plasmodium falciparum, UniProt Q8I0U7+Q8I6T3) | β1 activity, inhibitor | – | together with: Ac-nLPnLD-AMC | > 10 µM |
| CCC1c2ccsc2CCN1C(=O)Cn1cc(C(=O)O)nn1 (stereo not drawn) | CTSL | enzyme activity, inhibitor, FRET | – | – | > 100 µM |

| SMILES | target | test | system | setting | IC50 |
| --- | --- | --- | --- | --- | --- |
| CC(=O)NC1C(O)C=C(C(=O)O)OC1C(O)C(O)CO (stereo not drawn) | Sialidase-3 (Homo sapiens, UniProt Q9UQ49) | enzyme activity, inhibitor | – | – | 8 µM |
| CCc1nn(C)c2nc(-c3ccc(C(=O)O)cc3)nc(NCc3ccccc3)c12 | PDE6A/PDE6B (Bos taurus, UniProt P11541+P23439) | inhibitor | bovine retina | – | 0.07 µM |
| O=C(O)C(/C=C/c1ccc(Cl)cc1)=N\Nc1nc(-c2ccc([N+](=O)[O-])cc2)cs1 | Cholinesterase (BCHE, Equus caballus, UniProt P81908) | enzyme activity, inhibitor | – | – | 2.12 µM |
| CC[C@H](C)[C@H](NC(=O)[C@H](CCCNC(=N)N)NC(=O)[C@@H](NC(=O)[C@H](CC(N)=O)NC(=O)[C@@H](NC(=O)[C@H](CC(C)C)NC(=O)[C@H](CCCCN)NC(=O)[C@H](CCCNC(=N)N)NC(=O)[C@H](Cc1ccccc1)NC(=O)[C@H](CCC(=O)O)NC(=O)[C@H](CCC(=O)O)NC(=O)[C@H](CCC(=O)O)NC(=O)[C@H](C)NC(=O)[C@@H](N)Cc1ccc(O)cc1)[C@@H](C)O)C(C)C)C(=O)N[C@@H](CCSC)C(=O)N[C@@H](CCCCN)C(=O)O | Mitogen-activated protein kinase 14 | enzyme activity, inhibitor, fluorescence | – | pH 7.4 | > 200 µM |
| CCC(=O)c1ccc(OCC(O)CN2CCN(C(c3ccccc3)c3ccccc3)CC2)cc1 (stereo not drawn) | ERG11 (Candida albicans, UniProt P10613) | enzyme activity, inhibitor, mass spectrometry | – | – | 0.489 µM |
| CCN(CC)S(=O)(=O)c1ccc2nnn(OCc3ccccc3)c2c1 | CTSL | enzyme activity, inhibitor, FRET | – | – | > 100 µM |
| CCCN(CCCC[C@H](NC(=O)[C@H](CCCN1CCOCC1)NC(=O)[C@@H](NC(=O)[C@H](Cc1ccccc1)NC(=O)c1ccc(C(C)(C)C)cc1)C(C)C)C(=O)N[C@@H](CO)C(N)=O)C1CC2CCC1C2 (stereo partly drawn) | Chromobox protein homolog 8 (Homo sapiens, UniProt Q9HC52) | ligand displacement, TR-FRET | – | – | 0.18 µM |
| O=[N+]([O-])c1ccc2c(N=Nc3ccc4ccccc4c3O)c(O)cc(S(=O)(=O)O)c2c1 | Bcl-2-related protein A1 (Mus musculus, UniProt Q07440, C113S/P104K) | ligand displacement, FP | – | – | 320 µM |
| CC[C@H](C)[C@H](NC(=O)[C@H](CCCCN)NC(=O)[C@H](CC(C)C)NC(=O)[C@H](CCCCN)NC(=O)[C@H](CCCNC(=N)N)NC(=O)[C@H](CCCCN)NC(=O)[C@H](CCCCN)NC(=O)[C@@H](NC(=O)[C@H](CCCCN)NC(=O)[C@H](CC(N)=O)NC(=O)[C@H](CCCCN)NC(=O)[C@@H](NC(=O)[C@H](C)NC(=O)[C@@H](N)Cc1ccc(O)cc1)[C@@H](C)O)C(C)C)C(=O)N[C@H](C(=O)N[C@@H](CCCNC(=N)N)C(=O)O)[C@@H](C)CC | Mitogen-activated protein kinase 14 | enzyme activity, inhibitor, fluorescence | – | pH 7.4 | 1.3 µM |
| O=C(O)CCn1c(=O)oc2cc(Cl)c(Cl)cc21 | TACR1 (Homo sapiens, UniProt P25103) | antagonist | – | median value | > 25.1 µM |
| COC(=O)CNC(=O)[C@H](CC(C)C)NC(=O)[C@@H](Cc1ccc(O)cc1OC)NC(=O)[C@H](CO)NC(=O)[C@@H](NC(=O)[C@H](CC(C)C)NC(=O)[C@@H](Cc1ccc(O)cc1)NC(=O)[C@H](Cc1ccc(O)cc1)NC(=O)NC(=O)O)[C@@H](O)C(=O)O | PTPN11 (Homo sapiens, UniProt Q06124) | enzyme activity, inhibitor, fluorescence | – | – | 90 µM |
| CCC1c2ccsc2CCN1C(=O)c1cn(C2CCNCC2)nn1 (racemic) | CTSL | enzyme activity, inhibitor, FRET | – | – | > 100 µM |
| COc1ccccc1NC(=S)NCCN(C)C | uncharacterized protein (Anopheles gambiae, UniProt Q7QFG0) | enzyme activity, inhibitor, Ellman | – | pH 7.4, 30 °C, together with: 1 mM acetylthiocholine | 15 µM |
| CNC(=O)C[C@H](Cc1ccc(F)cc1)NC(=O)[C@@H](Cc1ccc(Cl)cc1Cl)NC(=O)[C@H](N)Cc1ccccc1C#N | MMP1 (Homo sapiens, UniProt P03956) | enzyme activity, inhibitor | – | – | > 10 µM |
| CN(C)CCCN1C(=O)CSC1c1ccc(Cl)cc1 (stereo not drawn) | uncharacterized protein (Apis mellifera, UniProt A0A7M6W5G5) | enzyme activity, inhibitor, Ellman | – | together with: 1 mM acetylthiocholine | 4.5 µM |
| O=C(c1cc(Cc2n[nH]c(=O)c3ccccc23)ccc1F)N1CC(CNC2CC2)C1 | TNKS2 (Homo sapiens, UniProt Q9H2K2) | enzyme activity, inhibitor | – | – | 3.2 µM and ~3.2 µM |

A few entries again:
| SMILES | target | test | system | setting | IC50 |
| --- | --- | --- | --- | --- | --- |
| COC(=O)CNC(=O)[C@H](CC(C)C)NC(=O)[C@@H](Cc1ccc(O)cc1OC)NC(=O)[C@H](CO)NC(=O)[C@@H](NC(=O)[C@H](CC(C)C)NC(=O)[C@@H](Cc1ccc(O)cc1)NC(=O)[C@H](Cc1ccc(O)cc1)NC(=O)NC(=O)O)[C@@H](O)C(=O)O | PTPN11 (Homo sapiens, UniProt Q06124) | enzyme activity, inhibitor, fluorescence | – | – | 90 µM |
| CCC1c2ccsc2CCN1C(=O)c1cn(C2CCNCC2)nn1 (racemic) | CTSL | enzyme activity, inhibitor, FRET | – | – | > 100 µM |
| COc1ccccc1NC(=S)NCCN(C)C | uncharacterized protein (Anopheles gambiae, UniProt Q7QFG0) | enzyme activity, inhibitor, Ellman | – | pH 7.4, 30 °C, together with: 1 mM acetylthiocholine | 15 µM |
| CNC(=O)C[C@H](Cc1ccc(F)cc1)NC(=O)[C@@H](Cc1ccc(Cl)cc1Cl)NC(=O)[C@H](N)Cc1ccccc1C#N | MMP1 (Homo sapiens, UniProt P03956) | enzyme activity, inhibitor | – | – | > 10 µM |
| CN(C)CCCN1C(=O)CSC1c1ccc(Cl)cc1 (stereo not drawn) | uncharacterized protein (Apis mellifera, UniProt A0A7M6W5G5) | enzyme activity, inhibitor, Ellman | – | together with: 1 mM acetylthiocholine | 4.5 µM |
